Results collected from several papers.
Every numbered part comes from another study and shows a few of its results, in no order.

Sample 1
Target: Probable WRKY transcription factor 11, DNA-binding domain (WRKY11, Arabidopsis thaliana, UniProt Q9SV15, residues 228-325)
Technique: DNA-protein interaction ELISA
Molecule type: double-stranded DNA, one strand shown
Sample: in vitro, bacterial lysate
Tested at: not given
Notes: whole dsDNA probe, crude lysate protein
Reference: highest signal in screen
Direction: higher = stronger binding
Quantity: relative absorbance
Residues (chain): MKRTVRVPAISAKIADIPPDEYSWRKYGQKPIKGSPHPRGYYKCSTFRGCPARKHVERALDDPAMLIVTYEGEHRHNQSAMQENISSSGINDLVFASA
AAAAAAGCTCATGGCCCTGAGGATCTAAAA: 18.7 % of maximum
AAAAAACCTCTTGTCTCTGCTCTCCCAAAA: 14.4 % of maximum
AAAAAAGCATATCTTCAGAACTTGCCAAAA: 16.4 % of maximum
AAAAAAGGCCGTTGGACCTCGGTCTAAAAA: 17.6 % of maximum
AAAAAATGTATTCGTGTCCACTCCATAAAA: 13.8 % of maximum
AAAAAAACTCTCCGGGTACAATTGCAAAAA: 13.3 % of maximum
AAAAAAGTCTGCGTCCTACCCCATTCAAAA: 26.2 % of maximum
AAAAAAGGCTCCGGCCCCCAATCGCAAAAA: 16.4 % of maximum
AAAAAAAGCTTCTATAGCTCCATGGAAAA: 12.7 % of maximum
AAAAAATCAACCATTATGGTATTACTAAAA: 18.4 % of maximum
AAAAAAGATTGACTCGTCTTACTCGAAAAA: 73.8 % of maximum
AAAAAATTAATCCATGCTTATGTCTGAAAA: 16.7 % of maximum
AAAAAACTCGACATAGAATGCGGAAAAAAA: 16.7 % of maximum
AAAAAAGGGCGAGCGCTGGATCCACAAAA: 12.4 % of maximum
AAAAAATAAATCGCGGCTACTGCTTCAAAA: 13 % of maximum
AAAAAATTTCTATTTCATCTTTGCCCAAAA: 17.6 % of maximum
AAAAAAGTCCCGCGCTAAGCTTTAAAAAAA: 15.6 % of maximum
AAAAAAAATTAGTCTCTTCGTCTCCCAAAA: 14.4 % of maximum
AAAAAAGCTTCTCATGTTGTCTTAGGAAAA: 16.4 % of maximum
AAAAAACACGCCATTGACACTGGTAAAAAA: 43.5 % of maximum

Sample 2
Target: Interferon regulatory factor 7, full length, phosphomimetic (IRF7, Homo sapiens, UniProt Q92985, residues 1-503, S471D/S472D/S475D/S476D/S477D/S483D/S484D/S487D)
Technique: protein-binding microarray
Molecule type: double-stranded DNA, one strand shown
Sample: in vitro
Tested at: 2200 nM top
Notes: 60-bp whole probe
With: salmon DNA 0.4 mg/ml
Reference: random background probes
Direction: higher = stronger binding
Quantity: fitted relative affinity
All sequences stand within: GCCTAGCAC … GTCTTGATTCGCTTGACGCTGCTG
Construct (chain): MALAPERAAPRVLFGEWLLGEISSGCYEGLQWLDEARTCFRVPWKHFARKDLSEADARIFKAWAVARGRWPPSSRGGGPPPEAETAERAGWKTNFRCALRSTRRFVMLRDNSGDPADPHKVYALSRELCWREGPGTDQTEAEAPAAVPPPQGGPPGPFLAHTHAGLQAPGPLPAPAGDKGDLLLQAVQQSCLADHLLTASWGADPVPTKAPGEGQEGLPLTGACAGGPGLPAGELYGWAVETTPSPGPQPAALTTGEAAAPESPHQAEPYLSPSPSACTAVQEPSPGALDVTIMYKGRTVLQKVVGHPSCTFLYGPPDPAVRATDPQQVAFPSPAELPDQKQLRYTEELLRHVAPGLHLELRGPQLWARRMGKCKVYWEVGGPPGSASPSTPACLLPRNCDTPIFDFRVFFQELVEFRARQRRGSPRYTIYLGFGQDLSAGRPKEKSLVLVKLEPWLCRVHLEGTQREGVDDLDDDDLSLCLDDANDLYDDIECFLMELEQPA
TTAGGTTTCGGTTCCGTTTAGTGCTAG: 11.3 z-score
GAGGATATCGGGACTGGAGACGTGCTA: -0.407 z-score
GACGGTATCGGGCTGGGGACGTGCTAG: -0.177 z-score
TACGGTCTCCTTCTCCTGACGTGCTAG: 1.39 z-score
TCAACTTCTGTTTTTGCACTGTGCTAG: 1.88 z-score
GACGCACTGAGTATCGAGACGTGCTAG: 0.191 z-score
TTAGAATTCAGACTGGATTAGTGCTAG: -0.644 z-score
GACTGTATCGGTCTCGGGACGTGCTAG: 0.134 z-score
TTAGAACTGAGTATCGATTCGTGCTAG: 0.45 z-score
TCAGCTATCACTATTCTACTGTGCTAG: 0.966 z-score
TCATCTCAGAATCTCTCACTGTGCTAG: 0.841 z-score
TTAGATCTCAGCATCGATTAGTGCTAG: -0.194 z-score
GGATTTCAGTTTCTCTTTCCGTGCTAG: 6.86 z-score
TTAGATTCCAGTTTCGATTAGTGCTAG: 6.9 z-score
TTAGGACTGGGGCTGGGTTAGTGCTAG: -0.633 z-score
GACGATGCCAGTTTCGAGACGTGCTAG: 3.75 z-score
TCAGATAACTTTTTTTTACTGTGCTAG: 0.0244 z-score
CATCATTGCCTGTTTTTCCCCGTGCTA: 1.78 z-score
TCTGTTGCCCGTATCTAGGTGTGCTAG: 1.43 z-score
TAAGGACTGGGTCTCGGTTAGTGCTAG: -0.0325 z-score
TCAGTTTTGAGCTCTGTCACTGTGCTA: 1.45 z-score
TTAGGGATCGACTTTCGGTTAGTGCTA: 5.44 z-score
CTGTTTTTGCTTTCTTTATGGTGCTAG: 5.2 z-score

Sample 3
Target: Sal-like protein 4, full length isoform A (SALL4, Homo sapiens, UniProt Q9UJQ4, residues 1-1053)
UniProt Q9UJQ4, sequence (whole entry, looked up): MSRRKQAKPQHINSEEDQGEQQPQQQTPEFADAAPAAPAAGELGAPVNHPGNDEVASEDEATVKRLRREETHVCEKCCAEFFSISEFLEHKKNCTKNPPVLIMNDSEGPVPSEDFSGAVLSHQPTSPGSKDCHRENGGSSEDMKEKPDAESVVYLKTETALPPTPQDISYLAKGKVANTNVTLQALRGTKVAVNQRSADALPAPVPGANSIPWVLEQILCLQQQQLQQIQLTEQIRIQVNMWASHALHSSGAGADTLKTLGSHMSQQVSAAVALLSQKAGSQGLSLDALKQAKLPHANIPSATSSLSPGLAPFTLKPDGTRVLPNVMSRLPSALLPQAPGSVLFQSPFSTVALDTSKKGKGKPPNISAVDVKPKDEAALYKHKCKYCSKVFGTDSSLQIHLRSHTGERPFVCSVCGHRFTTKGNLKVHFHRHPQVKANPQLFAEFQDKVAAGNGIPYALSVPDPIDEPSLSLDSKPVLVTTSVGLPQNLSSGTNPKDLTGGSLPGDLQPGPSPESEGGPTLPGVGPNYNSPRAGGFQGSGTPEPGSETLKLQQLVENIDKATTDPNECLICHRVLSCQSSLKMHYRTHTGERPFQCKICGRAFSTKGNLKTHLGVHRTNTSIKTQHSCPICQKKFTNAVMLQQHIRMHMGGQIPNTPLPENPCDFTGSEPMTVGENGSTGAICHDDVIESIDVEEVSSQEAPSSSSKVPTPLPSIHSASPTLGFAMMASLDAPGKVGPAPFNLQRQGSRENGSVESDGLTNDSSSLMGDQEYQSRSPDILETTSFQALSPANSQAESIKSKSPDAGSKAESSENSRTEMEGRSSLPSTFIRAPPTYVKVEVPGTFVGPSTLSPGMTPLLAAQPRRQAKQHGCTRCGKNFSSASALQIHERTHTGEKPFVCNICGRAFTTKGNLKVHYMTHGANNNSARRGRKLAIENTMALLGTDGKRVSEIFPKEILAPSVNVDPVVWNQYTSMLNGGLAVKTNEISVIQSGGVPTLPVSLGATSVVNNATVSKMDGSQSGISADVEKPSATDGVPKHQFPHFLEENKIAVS
Technique: universal PBM
Molecule type: double-stranded DNA, one strand shown
Sample: in vitro
Tested at: 600 nM
Notes: 8-mer, flanks averaged, mean of replicates
Direction: higher = stronger binding
Quantity: E-score
ATCTCGAG: -0.0011
ACATGGGT: 0.107
ACCACCGT: -0.22
ATAATCGA: 0.279
AATGACAA: 0.231
AGTGCGGC: -0.318
ATCCACTA: 0.0888
CGAAATGA: 0.155
ACACGCCT: 0.0232
ACGTGTGG: -0.0422
GCGACATA: 0.0999
AACTTATC: 0.161
CATTGGCA: 0.0229
CACCTAAG: -0.042
CGATATTC: 0.0661
AACGGCTC: -0.211
CTACAGAC: -0.0389
CGGGAACC: -0.327
AACAATAA: 0.424
GCTGTTAA: 0.12
AAGATGCA: 0.0921

Sample 4
Target: RNA binding protein fox-1 homolog 2, RRM domain, GST-SBP tag (RBFOX2, Homo sapiens, UniProt O43251-10, residues 100-194)
Technique: RNA Bind-n-Seq
Molecule type: RNA
Sample: in vitro
Tested at: 365 nM
Notes: natural RNA segment, single round, ends assumed
Reference: no-protein control
Direction: higher = stronger binding
Quantity: RBNS enrichment (R)
All sequences stand within: GGGAGUUCUACAGUCCGACGAUC … UGGAAUUCUCGGGUGCCAA
Target sequence (chain): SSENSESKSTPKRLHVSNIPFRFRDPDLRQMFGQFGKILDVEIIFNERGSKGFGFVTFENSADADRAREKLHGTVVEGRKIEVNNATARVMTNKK
AGGAUCCCUGACCCUAGCGAUACUUAACAGUUCUUCCCAUGUCCUAUGGUAUCUGUGCUUUUGGCUGGGUAAAAGUACAGCCAGAGACGGCUUACUGGGUUUAGAAUGGA: 0.391
AAAUAUUACAUUUCAUUACUGCUUCAUGAAGACAGAAAGUAAUUGAAACUUAAACAUAUAAAAACAUCUAACUGCUUUGUCCUUUUUUAAUUUCAAUAUGUUUAUACUGG: 0.614
UUUCAAAAGAUAAAAGAGAAUAAUGGGUUCUUUGUAUUGGCACUUUGCACCAGAAGCAUAUCAUUAUUUAUUGCUGUGAUUACUAUCUGUCAUCCACCUUGUACUAGAAA: 0.529
AAACUUUAUCAUAUGGCAGAAGCCUCUAUUGUGUUAAAUAAAUUAGUAUUUCAUAUAUAUACAUAUAUAUGCACCUAUAUAAUGUGUAUAUAUAUAAAAAGGCAGCCAUU: 0.755
AAGAGUACUUACAGCUUGAGGGAAAAGCAUAAAGUUUUAGUUAAAUAGCCUUCAUACUGUGGAUUUUUCCUCCUACUAACUAAUAUGUGGGAAAUUAAGAUUACAGAUGC: 0.426
GAGAACUUCACAGAGACUCUGUCCUUCCAUGCAAAGGCUUCCUGAAAUAGGGAGACUGACUGAGUAGCUCAUUCUUGUGACUUACAGUGCCAACAUUUAAAAAAGUAUGA: 0.341
CCUCUGGUCCUGCAUAUGCAGAGGACGGAGCAGGCUCAGCCCCCUGGAAGAUGAGCUCAAGGGGAGGACAGGCCUUGGGAGGGCAGGCGUUUGCAUUAAUAUCAAGGCAA: 0.368
UUGGUACUUUUCCCGGAAACUAUGUCAAAAGGCUUGACUCACCUCACUCCUACUUUAUGCCACAUUUCAGCCACACAUCUGCAUUAACCCACCUGAAACAUCCCAGCAGG: 1.73
UAAUGUAAAUUUGAAGUCAUUGUUAUAAAGUAAUAAAAGUGGAAAUUACUUAAGUAUUUAAAUUAUGAAAGAAUAAUGCAGACUUUUUAUUAUUUCUUAACUGACUAGAA: 0.506
UCUCUUCGGGCCAGCCCGGUGCCACGGUCACAUGGGGGAAGACUUCAGCCACAGCUGUGAGCAGCUCUCUGCCAGCUAUGUGGCCAGGGACCACAAAACUACCAUGUGAG: 0.192
UGUAUUUGUAGUUGUUUCUUUCAAAAACAAUUUUUAAAAAUUGGAAAGGGAUAUAUAUGAGAAGUGAUUACUCCAAAGAAUAUUAAUCUUAAAAGAAAGCAGUAUAGAUG: 0.618
GAAGAUCUUUUUAUGCCACUGUUUCUGCUGUCUUGGUUCUGACACCCCUGUCUGGUGAUAUGCUAUACCCCAGUGCUGCCUACACGUGCUUUAGCUGUAGAGCUGGGUAU: 0.773

Sample 5
Target: Centromere-binding protein 1, full length, N-terminal tag (CBF1, Saccharomyces cerevisiae, UniProt P17106, residues 1-351)
UniProt P17106, sequence (whole entry, looked up): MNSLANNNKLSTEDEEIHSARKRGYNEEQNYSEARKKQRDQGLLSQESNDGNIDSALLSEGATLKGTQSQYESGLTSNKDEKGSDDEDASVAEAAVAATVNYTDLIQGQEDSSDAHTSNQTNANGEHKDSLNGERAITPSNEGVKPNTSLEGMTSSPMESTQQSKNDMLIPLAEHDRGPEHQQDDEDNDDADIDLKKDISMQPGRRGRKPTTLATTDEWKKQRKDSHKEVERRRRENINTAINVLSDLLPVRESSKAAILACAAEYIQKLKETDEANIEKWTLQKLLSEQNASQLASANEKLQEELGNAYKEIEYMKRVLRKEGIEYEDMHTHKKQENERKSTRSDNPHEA
Technique: protein-binding microarray
Molecule type: double-stranded DNA, one strand shown
Sample: in vitro
Tested at: 0.8 µM
Notes: whole 60-bp probe, no competitor
Direction: higher = stronger binding
Quantity: fluorescence intensity
All sequences stand within: … GTCTTGATTCGCTTGACGCTGCTG
CTAAGTTAGCGTTGTCACCCGGGAAGAAGAGAATTC: 516 a.u.
CTAGTAGTTCTGTGAAACGTGTACCCACAATAGTTC: 600 a.u.
CTATTCCCTTACCATCATCTGATCCGGGAAAGGTTC: 726 a.u.
GAATCTGGAGTAATTCTCGTGATCTTGTTTAATTAG: 1060 a.u.
CTACGAATACGTTTTCTCATGACCATTGTACTATTC: 555 a.u.
CTATCTTCAATATCAGGTGAAATGTGTCTTGCCTTC: 669 a.u.
CTAATAGAAGTATATCATATGATATTTCGAACTTTC: 704 a.u.
CCTAACTACTATATCCATGTGATATAGCTTCGTACA: 1160 a.u.
TGTACGAAGCTATATAACGTGAGTATAGTAGTTAGG: 602 a.u.
CTAGCAGGCACAGGTCACGAACTGCGGTGCGGATTC: 788 a.u.
CTAGAGATAGATACATGCGTGGGTCAATTGCCTTTC: 492 a.u.
GAATCTTTCTGTGGTCACGACGGTAGCCTCAACTAG: 1110 a.u.
GAAAAAAACGCACTTAAGGTGACGTAGATGCGTTAG: 502 a.u.
GAACTAAACCTCTCACACGTTAATGTCGTGAAATAG: 553 a.u.
GAACCCTCAACTTAGCATGTGCTGATTACACTATAG: 795 a.u.
GAAACTTTTACACCTCTGCTGATATTTTAAATATAG: 530 a.u.

Excerpt of the above (sample 5):
CTAAGTTAGCGTTGTCACCCGGGAAGAAGAGAATTC: 516 a.u.
CTAGTAGTTCTGTGAAACGTGTACCCACAATAGTTC: 600 a.u.
CTATTCCCTTACCATCATCTGATCCGGGAAAGGTTC: 726 a.u.
GAATCTGGAGTAATTCTCGTGATCTTGTTTAATTAG: 1060 a.u.
CTACGAATACGTTTTCTCATGACCATTGTACTATTC: 555 a.u.
CTATCTTCAATATCAGGTGAAATGTGTCTTGCCTTC: 669 a.u.
CTAATAGAAGTATATCATATGATATTTCGAACTTTC: 704 a.u.
CCTAACTACTATATCCATGTGATATAGCTTCGTACA: 1160 a.u.
TGTACGAAGCTATATAACGTGAGTATAGTAGTTAGG: 602 a.u.
CTAGCAGGCACAGGTCACGAACTGCGGTGCGGATTC: 788 a.u.
CTAGAGATAGATACATGCGTGGGTCAATTGCCTTTC: 492 a.u.
GAATCTTTCTGTGGTCACGACGGTAGCCTCAACTAG: 1110 a.u.
GAAAAAAACGCACTTAAGGTGACGTAGATGCGTTAG: 502 a.u.
GAACTAAACCTCTCACACGTTAATGTCGTGAAATAG: 553 a.u.
GAACCCTCAACTTAGCATGTGCTGATTACACTATAG: 795 a.u.
GAAACTTTTACACCTCTGCTGATATTTTAAATATAG: 530 a.u.
